Measurements of several laboratories.
Compare with care: the assays were run in different laboratories. Several values in a cell are separate wells, animals, samples, runs or records. Numbers after ± are the reported error.

`N#Cc1ccc(C(c2ccc(C#N)cc2)n2cncn2)cc1` has an estradiol concentration of 630 ± 142 pg/mL (ELISA; human patients, tumour homogenate; 10 mg daily).
Under “percent change from baseline”, `C[C@H]1C[C@H]2CSC(N)=N[C@@]2(c2nc(NC(=O)c3ccc(OC(F)F)cn3)cs2)CO1` is recorded as -29.8% (refers to: total Aβ; healthy adults, plasma; 3 mg single dose, 4 h post-dose; baseline: placebo).
`OC(CCN1CCCCC1)(c1ccccc1)C1CC2C=CC1C2` (stereo not drawn) — result for “change, Alpha EEG power, in O2-Pz”: -23.1% (resting-state EEG; healthy elderly humans; oral, 4 mg, eyes closed, LS mean; baseline: baseline).
`Cc1cn(-c2ccc3n(c2=O)CCN([C@@H](C)[C@@H]2CC[C@H](c4cc(F)c(Cl)cc4C(F)(F)F)O2)C3=O)cn1`: “change in CSF level” -16.1% (refers to: Aβ40; human, cerebrospinal fluid; 150 mg single dose, Tmax; baseline: placebo-adjusted baseline).
For `O=C(O)CNC(=O)Cc1ccccc1`, the sarcomere length was 1.72 µm (ventricular cardiomyocytes, C57BL/6 mouse; dose not given, 0.72 s).
`CCN(Cc1nc2c(N)nc3cc(-c4cc[nH]n4)ccc3c2[nH]1)C(C)=O` gave a fold change of 9.1 (Luminex, refers to: IL-6; cancer patients, serum; 2000 µg monotherapy, first 24 h; baseline: baseline).
The EC50 of `CC(C)C[C@@H](NC(=O)[C@H](C)NC(=O)CNC(=O)[C@@H](NC=O)C(C)C)C(=O)N[C@@H](C)C(=O)N[C@@H](C(=O)N[C@H](C(=O)N[C@@H](C(=O)N[C@@H](Cc1c[nH]c2ccccc12)C(=O)N[C@H](CC(C)C)C(=O)N[C@@H](Cc1c[nH]c2ccccc12)C(=O)N[C@H](CC(C)C)C(=O)N[C@@H](Cc1c[nH]c2ccccc12)C(=O)N[C@@H](C(=O)N[C@@H](Cc1c[nH]c2ccccc12)C(=O)NCCO)C(C)C)[C@H](C)O)C(C)C)C(C)C` is reported as 202 ± 46.6 nM (H+/Na+ transport, pyranine pH-gradient; EYPC/cholesterol LUVs 2:1).
For `COC[C@@H](c1ccc(C(F)(F)F)cc1)N1CCN(C2(C)CCN(C(=O)c3c(C)ncnc3C)CC2)C[C@@H]1C`, “change in HIV-1 RNA” read -2.1 log10 copies/mL (HIV-1 infected patients, plasma; dose not given, week 48, with optimized background regimen; baseline: baseline).
With `CC(C)(C)c1cc(C(C)(C)C)c(NC(=O)c2c[nH]c3ccccc3c2=O)cc1O` the IL-17A level was 64700 pg/mL (ELISA; BALB/c mice, small intestine; ip, dose not given, given before gliadin, together with: gliadin).
`O=C(O)c1ccc(-n2cc(CNc3cc(Br)cc(C(F)(F)F)c3)c(-c3ccc(F)c(F)c3)n2)cc1` gave a survival of about 80% (Caenorhabditis elegans, S. aureus infected; 1 µg/mL, 5 days).
Under “platelet aggregation AUC”, `CSCCNc1nc(SCCC(F)(F)F)nc2c1ncn2[C@@H]1O[C@H](COP(=O)(O)OP(=O)(O)C(Cl)(Cl)P(=O)(O)O)[C@@H](O)[C@H]1O` is recorded as 28.6 ± 15.1 U (ADP-induced platelet aggregation, Multiplate aggregometry; human patients, whole blood; dose not given, 2 h).
Under “systolic blood pressure change”, `N#Cc1ccc2c(c1)[C@H]1CCCN(C(=O)c3ccc4[nH]cnc4c3)[C@H]1C2` is recorded as 1.4 mmHg (human, Phase II trial; oral, 20 mg once daily, day 28, adjusted mean, SE).
Under “log2 fold change”, `N#Cc1ccn2c(-c3ccncc3)c(-c3ccc(F)cc3)nc2c1` is recorded as -0.143 (kinase binding, competitor, MIB/MS competition, refers to: SSK2; Candida albicans cell lysate; 100 nM; baseline: DMSO).
For `C[C@H](CS)C(=O)N1CCC[C@H]1C(=O)O`, the fibrosis area was 7.41% and 13.3% and 5.88% and 7.02% and 5.97% and 6.14% (mouse, unilateral ureteral obstruction, left kidney (obstructed); dose not given).
Under “pathway activation z-score”, `Cn1cc(Nc2nccc(-c3ccc4c(c3)CN(C3COC3)CC[C@H]4NC(=O)c3cn(C(C)(C)C)nn3)n2)cn1` is recorded as 2 (refers to: inflammasome pathway; splenic B cells, mice; 30 mg/kg, IgD-activated in vivo; baseline: vehicle, direction not given).
Under “complete response, best response”, `O=C1Nc2cc3[nH]nc(-c4ccncc4)c3cc2CN1Cc1ccccc1` is recorded as 0% (RECIST v1.1; human, relapsed or refractory advanced solid tumours; intravenous, 1.8 mg/kg, pooled schedules).
`COc1ccc(-c2cncc(N[C@@H](C)c3cccc(NC(=O)c4cncc(C)c4)c3)n2)cc1OC` has a fold change of 0.629 (refers to: rno-miR-144-3p; rat SU5416/hypoxia model, lung; dose not given; baseline: SU5416/hypoxia vehicle).
`Cn1nnc2c(C(N)=O)ncn2c1=O` gave a T/C ratio of 100% (mouse subcutaneous GBM PDX sample B; subcutaneous, dose not given).
